Results pooled from the literature.
Compare with care: the assays were run in different laboratories. ± marks the error that the study gave.
UniProt P00519, sequence (whole entry, looked up): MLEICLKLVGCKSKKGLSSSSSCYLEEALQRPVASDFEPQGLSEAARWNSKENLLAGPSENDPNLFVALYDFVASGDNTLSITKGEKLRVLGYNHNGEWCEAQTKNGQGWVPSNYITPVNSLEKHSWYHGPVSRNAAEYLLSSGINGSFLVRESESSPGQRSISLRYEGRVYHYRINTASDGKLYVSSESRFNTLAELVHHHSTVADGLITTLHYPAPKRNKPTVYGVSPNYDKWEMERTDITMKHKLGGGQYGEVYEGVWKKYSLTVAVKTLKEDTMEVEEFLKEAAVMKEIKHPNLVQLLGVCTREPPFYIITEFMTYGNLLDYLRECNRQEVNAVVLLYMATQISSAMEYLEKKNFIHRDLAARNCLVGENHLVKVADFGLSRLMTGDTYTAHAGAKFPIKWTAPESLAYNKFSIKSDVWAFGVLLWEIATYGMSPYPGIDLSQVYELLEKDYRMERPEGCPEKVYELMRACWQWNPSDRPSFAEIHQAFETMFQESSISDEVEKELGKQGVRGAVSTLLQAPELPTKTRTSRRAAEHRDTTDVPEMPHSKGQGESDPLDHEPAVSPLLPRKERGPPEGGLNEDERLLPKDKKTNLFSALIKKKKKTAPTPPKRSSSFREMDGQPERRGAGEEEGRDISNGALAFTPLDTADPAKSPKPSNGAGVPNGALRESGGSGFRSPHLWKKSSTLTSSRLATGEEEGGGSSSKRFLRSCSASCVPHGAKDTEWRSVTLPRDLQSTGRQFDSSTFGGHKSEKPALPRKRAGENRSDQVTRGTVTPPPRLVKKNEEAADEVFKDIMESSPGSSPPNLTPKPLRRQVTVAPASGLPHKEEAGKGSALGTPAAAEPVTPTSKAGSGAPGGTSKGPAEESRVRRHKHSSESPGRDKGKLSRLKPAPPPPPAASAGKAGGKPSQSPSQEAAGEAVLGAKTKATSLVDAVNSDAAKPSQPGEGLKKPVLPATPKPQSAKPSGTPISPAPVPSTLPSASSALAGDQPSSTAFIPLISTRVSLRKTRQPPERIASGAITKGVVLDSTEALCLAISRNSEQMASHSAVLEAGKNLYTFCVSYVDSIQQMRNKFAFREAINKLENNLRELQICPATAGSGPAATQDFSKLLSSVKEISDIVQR
UniProt O75460, sequence (whole entry, looked up): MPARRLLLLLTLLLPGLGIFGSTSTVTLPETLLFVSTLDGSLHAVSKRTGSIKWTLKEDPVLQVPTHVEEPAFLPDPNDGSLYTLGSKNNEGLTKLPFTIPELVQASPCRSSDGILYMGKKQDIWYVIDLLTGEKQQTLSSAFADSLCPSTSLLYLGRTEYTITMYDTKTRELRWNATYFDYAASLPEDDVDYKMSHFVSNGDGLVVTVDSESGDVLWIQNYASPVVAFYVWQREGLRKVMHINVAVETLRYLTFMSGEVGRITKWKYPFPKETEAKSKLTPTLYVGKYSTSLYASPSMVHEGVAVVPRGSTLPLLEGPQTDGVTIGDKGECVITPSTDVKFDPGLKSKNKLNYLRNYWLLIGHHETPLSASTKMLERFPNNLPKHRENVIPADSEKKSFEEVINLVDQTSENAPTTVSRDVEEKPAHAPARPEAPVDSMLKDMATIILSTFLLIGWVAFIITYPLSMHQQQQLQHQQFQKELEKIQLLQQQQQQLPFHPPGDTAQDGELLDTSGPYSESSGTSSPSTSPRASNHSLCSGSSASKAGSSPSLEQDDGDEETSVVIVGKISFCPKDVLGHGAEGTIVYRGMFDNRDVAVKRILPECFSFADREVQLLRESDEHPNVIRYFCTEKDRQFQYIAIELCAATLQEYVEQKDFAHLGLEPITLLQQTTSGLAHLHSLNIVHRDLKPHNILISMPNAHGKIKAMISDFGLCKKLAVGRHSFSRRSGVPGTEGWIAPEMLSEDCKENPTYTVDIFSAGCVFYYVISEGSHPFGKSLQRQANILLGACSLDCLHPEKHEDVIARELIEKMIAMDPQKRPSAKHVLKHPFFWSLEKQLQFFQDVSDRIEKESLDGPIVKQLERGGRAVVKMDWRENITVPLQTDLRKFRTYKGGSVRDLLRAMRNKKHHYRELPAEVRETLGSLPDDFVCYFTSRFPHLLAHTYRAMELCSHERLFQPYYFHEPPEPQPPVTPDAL

O=C1NC2(CC2)COc2ncc(F)cc2[C@H]2COCCN2c2ccn3ncc1c3n2 — organ-to-body weight ratio (Sprague-Dawley rat, female, thymus; oral, 10 mg/kg/day, 4 weeks dosing, end of recovery): 0.135 ± 0.03%
CCN(CC)CCOc1ccc(-c2nnn(Cc3ccc(OC)cc3)c2N)cc1 — half-life (metabolic stability; monkey, plasma): > 6.21 h
CC(C)N1CCCCC1C(=O)NC(Cc1ccc(-c2ccccc2)cc1)B(O)O (stereo not drawn) — half-life (rat, plasma; intravenous, 1 mg/kg): 5.3 h
CC1(C)C(=O)N(c2ccc(C#N)c(C(F)(F)F)c2)C(=S)N1c1ccc(C(N)=O)c(F)c1 — half-life (male human, plasma; oral, 80 mg, single dose, fasted): 189 h
CC(=O)NCCCC[C@@H]1NC(=O)[C@H](Cc2c[nH]c3c(C)cccc23)NC(=O)[C@H]([C@@H](C)O)NC(=O)[C@H](CC(N)=O)NC(=O)[C@@H](NC(C)=O)C(C)(C)SSC(C)(C)[C@@H](C(=O)N[C@@H](Cc2ccc(OCCN)cc2)C(=O)N[C@@H](Cc2ccc3ccccc3c2)C(=O)NC2(C(=O)N[C@@H](CCC(=O)O)C(=O)N[C@@H](CC(N)=O)C(=O)N[C@@H](Cc3cccnc3)C(=O)N(C)CC(N)=O)CCOCC2)NC1=O — protein binding (human alpha-1-acid glycoprotein 0.14%; equilibrium dialysis; 0.01 µM): 7.56 ± 4.06%
CN1CCCCC1C(=O)NC(Cc1ccc(-c2ccccc2)cc1)B(O)O (stereo not drawn) — half-life (rat, plasma; oral, 1 mg/kg): 4.8 h
Cn1nc(NS(C)(=O)=O)c2c(Cl)ccc(-n3c([C@H](Cc4cc(F)cc(F)c4)NC(=O)Cn4nc(C(F)F)c5c4C(F)(F)[C@@H]4C[C@H]54)nc4nc(OCCC(F)(F)F)ccc4c3=O)c21 — half-life (human, plasma; oral, 1875 mg single dose, powder in bottle, geometric mean): 55.9 h
CS(C)(=O)=Nc1ccc(-c2ccc(-c3nc4cc(O[C@@H]5CO[C@H]6[C@@H]5OC[C@H]6O)[nH]c4cc3F)cc2)cc1 — inhibition (Serine/threonine-protein kinase/endoribonuclease IRE1 (ERN1, Homo sapiens, UniProt O75460); enzyme activity, inhibitor; 10 µM): -5%
CC(C)[C@H]1NC(=O)[C@H](Cc2ccccc2)NC(=O)[C@@H](C(C)C)NC(=O)[C@@H](C)NC(=O)[C@H](CO)NC(=O)[C@@H](Cc2c(-c3ccc(-c4ccc5ccccc5c4)cc3)[nH]c3ccccc23)NC(=O)[C@@H](CO)NC1=O — half-life (female Sprague-Dawley rat, plasma; intravenous, 1 mg/kg, single dose): 0.089 h
N=C(N)NCCC[C@H](NC(=O)[C@@H]1CCCN1C(=O)[C@@H]1CSCSC[C@H](N)C(=O)N[C@@H](Cc2ccc(O)cc2)C(=O)N[C@@H](Cc2ccccc2)C(=O)N[C@@H](CCC(N)=O)C(=O)N[C@@H](CC(N)=O)C(=O)N1)C(=O)NCC(N)=O — half-life (chemical stability; male human, serum; 490 µM): 1.5 h
CC[C@H](C)[C@H](NC(=O)[C@H](Cc1ccc(O)cc1)NC(=O)[C@@H](NC(=O)[C@H](CCCNC(=N)N)NC(=O)[C@@H](N)CC(=O)O)C(C)C)C(=O)N[C@@H](Cc1c[nH]cn1)C(=O)N1CCC[C@H]1C(=O)O — half-life (Beagle dogs, both sexes, plasma; subcutaneous, 10 mg/kg/day, day 27): 0.462 ± 0.067 h
NC1CCN(C(=O)Oc2ccc(C3CCCC4(C3)OOC3(O4)C4CC5CC(C4)CC3C5)cc2)CC1 (racemic) — half-life (male Sprague-Dawley rat, plasma; intravenous, 10 mg/kg): 10.2 h
CC1(C)C(=O)N(c2ccc(C#N)c(C(F)(F)F)c2)C(=S)N1c1ccc(C(=O)O)c(F)c1 — half-life (male human, plasma; oral, 40 mg, single dose, fasted): 225 h
COc1ccccc1-c1n[nH]c2nc(NC3CCN(C(=O)Cc4ccc(F)cc4F)CC3)ncc12 — relative abundance (bead binding, competition bead pull-down, refers to: LINJ.33.1410; Leishmania donovani axenic amastigote extract; 10 µM; reference: vehicle): 0.8
CC(C)[C@H]1NC(=O)C[C@H]2/C=C/CCSSC[C@@H](NC1=O)C(=O)N[C@H](Cc1cccc3ccccc13)C(=O)NCC(=O)O2 — inhibition (Tyrosine-protein kinase ABL1 (ABL1, Homo sapiens, UniProt P00519); enzyme activity, inhibitor; 10 µM): -1.2%
